Published values from different studies.
Each line is one published result; not all experiments were run side by side.
Organism: Pseudomonas aeruginosa

Structure (SMILES)	test	system	conditions	scale	MIC
COc1ccc2ccc3c(c2c1)C=[N+]1C2CCCCC2[N+]2=Cc4cccc(OC)c4[O][Au-]21[O]3.F[P-](F)(F)(F)(F)F (stereo not drawn)	bacterial growth, broth microdilution	carbapenem-resistant clinical isolate	24 h		10 µM
Cc1ccc2ccc3ccc(C)nc3c2n1.Cc1ccc2ccc3ccc(C)nc3c2n1.O.[Cl-].[Cl-].[Cl-].[Yb+3]					125 µg/mL
COc1ccc2ccc3c(c2c1)C=[N+]1C2CCCCC2[N+]2=Cc4c(OC)cccc4[O][Au-]21[O]3.F[P-](F)(F)(F)(F)F (stereo not drawn)	bacterial growth, broth microdilution	carbapenem-resistant clinical isolate	24 h		20 µM
COc1ccc2c3c(oc2c1CC=C(C)C)-c1cc(CC=C(C)C)c(O)cc1OC3		ATCC 10145			128 µg/mL
CC1(C)S[C@@H]2[C@H](NC(=O)[C@H](NC(=O)C3=C(O)C(c4ccccc4F)NC3=O)c3ccccc3)C(=O)N2[C@H]1C(=O)O (stereo partly drawn)	broth microdilution	PAO1	with: clavulanic acid 6 µg/mL		6.25 µg/mL
CCn1cc(C(=O)NCCNCCO)c(=O)c2cc(OC)c(OCc3cccc(Br)c3)cc21		ATCC 27853		≥80% growth inhibition	< 0.25 µg/mL
CC(C)=CCc1cc2c(cc1O)OC[C@H]1c3ccc(O)c(CC=C(C)C)c3O[C@@H]21		ATCC 10145			128 µg/mL
Cc1[nH]c(=O)c(CNC(=O)c2ccc(C(F)(F)F)nc2)c2c1CCCC2	agar double dilution	clinical isolate 17-2			> 128 µg/mL
CC[C@@H](C)[C@@H](NC(=O)[C@@H](C)NC(=O)[C@@H](CCCCN)NC(=O)[C@@H](CC(C)C)NC(=O)[C@@H](CC(C)C)NC(=O)[C@H](NC(=O)[C@@H](CCCCN)NC(=O)[C@@H](CC(C)C)NC(=O)[C@@H](CCCCN)NC(=O)[C@@H](CCCCN)NC(=O)[C@@H](CCCCN)NC(=O)[C@@H](CCCCN)NC(=O)[C@@H](C)NC(=O)[C@@H](CCCCN)NC(=O)[C@@H](CO)NC(=O)[C@@H](Cc1ccccc1)NC(=O)[C@H](NC(=O)[C@@H](CCCCN)NC(=O)[C@@H](CC(C)C)NC(=O)[C@@H](Cc1ccccc1)NC(=O)[C@@H](CO)NC(=O)[C@@H](CCCCN)NC(=O)[C@@H](Cc1c[nH]c2ccccc12)NC(=O)[C@@H](CCCCN)NC(C)=O)[C@H](C)O)[C@H](C)O)C(=O)N[C@H](CO)C(=O)N[C@H](CCCCN)C(N)=O	broth microdilution	PA14	24 h, 37 °C		2.5 µM
COc1ccc2ccc3c(c2c1)C=[N+]1C2CCCCC2[N+]2=Cc4cc(C(C)(C)C)cc(C(C)(C)C)c4[O][Au-]21[O]3.F[P-](F)(F)(F)(F)F (stereo not drawn)	bacterial growth, broth microdilution	carbapenem-resistant	24 h		> 20 µM
N=C(N)NCCC[C@H](NC(=O)[C@H](CCCNC(=N)N)NC(=O)[C@H](CCCNC(=N)N)NC(=O)[C@@H](N)CCCNC(=N)N)C(=O)N[C@@H](Cc1c[nH]c2ccccc12)C(=O)N[C@@H](Cc1c[nH]c2ccccc12)C(=O)N[C@@H](Cc1c[nH]c2ccccc12)C(=O)O	broth microdilution	PAO1	37 °C		150 µg/mL
COc1ccc2ccc3c(c2c1)C=[N+]1C2CCCCC2[N+]2=Cc4c(C)cccc4[O][Au-]21[O]3.F[P-](F)(F)(F)(F)F (stereo not drawn)	bacterial growth, broth microdilution	carbapenem-resistant clinical isolate	24 h		> 20 µM
CSCC[C@H](NC(=O)[C@H](CCCNC(=N)N)NC(=O)[C@H](Cc1c[nH]c2ccccc12)NC(=O)[C@H](CCC(N)=O)NC(=O)[C@H](Cc1c[nH]c2ccccc12)NC(=O)[C@H](CCCNC(=N)N)NC(=O)[C@@H](N)CCCNC(=N)N)C(=O)N[C@@H](CCCCN)C(=O)N[C@@H](CCCCN)C(=O)N[C@@H](CC(C)C)C(=O)NCC(=O)NCCCC[C@H](NC(=O)CNC(=O)[C@H](CC(C)C)NC(=O)[C@H](CCCCN)NC(=O)[C@H](CCCCN)NC(=O)[C@H](CCSC)NC(=O)[C@H](CCCNC(=N)N)NC(=O)[C@H](Cc1c[nH]c2ccccc12)NC(=O)[C@H](CCC(N)=O)NC(=O)[C@H](Cc1c[nH]c2ccccc12)NC(=O)[C@H](CCCNC(=N)N)NC(=O)[C@@H](N)CCCNC(=N)N)C(=O)NCCCCCC(N)=O	broth microdilution	ATCC 27853	24 h, 37 °C		15 µM
CCCCCCCCCc1nc2cc(Cl)ccc2c(=O)n1CCN		PAO1			inactive
CCn1[c]([Au-]([Cl])([Cl])[Cl])[n+](CC)c2ccc(C(=O)OC)cc21	broth dilution	PA7 DSM 24068	20 h, 37 °C		59.8 µM
CC[C@@H](C)[C@@H](NC(=O)[C@@H](C)NC(=O)[C@@H](CCCCN)NC(=O)[C@@H](CC(C)C)NC(=O)[C@@H](C)NC(=O)[C@H](NC(=O)[C@@H](Cc1c[nH]cn1)NC(=O)[C@@H](CC(C)C)NC(=O)[C@H](NC(=O)[C@H](NC(=O)[C@@H](CCCCN)NC(=O)[C@H](NC(=O)[C@@H](C)NC(=O)[C@@H](CO)NC(=O)[C@@H](CCCCN)NC(=O)[C@@H](Cc1ccccc1)NC(=O)[C@H](NC(=O)[C@@H](CCCCN)NC(=O)[C@@H](CC(C)C)NC(=O)[C@@H](Cc1ccccc1)NC(=O)[C@@H](CO)NC(=O)[C@@H](CCCCN)NC(=O)[C@@H](Cc1c[nH]c2ccccc12)NC(=O)[C@@H](CCCCN)NC(C)=O)[C@H](C)O)C(C)C)[C@H](C)O)C(C)C)[C@H](C)O)C(=O)N[C@H](CO)C(=O)N[C@H](CO)C(N)=O	broth microdilution	PA14	24 h, 37 °C		1.3 µM
CCCCCCCCCC(=O)NCCCC[C@H](NC(=O)[C@H](CC(C)C)NC(=O)[C@H](CCCCN)NC(=O)[C@H](CCCCNC(=O)[C@H](CC(C)C)NC(=O)[C@H](CCN)NC(=O)[C@H](CCCCNC(=O)[C@H](Cc1ccccc1)NC(=O)[C@@H](N)CCCN)NC(=O)[C@H](Cc1ccccc1)NC(=O)[C@@H](N)CCCN)NC(=O)[C@H](CC(C)C)NC(=O)[C@H](CCN)NC(=O)[C@H](CCCCNC(=O)[C@H](Cc1ccccc1)NC(=O)[C@@H](N)CCCN)NC(=O)[C@H](Cc1ccccc1)NC(=O)[C@@H](N)CCCN)C(N)=O	broth microdilution	PAO1	37 °C		2 µg/mL
CC(C)C[C@H](NC(=O)[C@H](CC(N)=O)NC(=O)[C@H](CCCNC(=N)N)NC(=O)[C@@H](CC(C)C)NC(=O)[C@H](Cc1ccccc1)NC(=O)[C@H](CC(=O)O)NC(=O)[C@H](CCCCN)NC(=O)[C@@H](CC(C)C)NC(=O)[C@H](CCCNC(=N)N)NC(=O)[C@H](CCC(N)=O)NC(=O)[C@@H](NC(=O)[C@@H](CC(C)C)NC(=O)[C@H](CCCNC(=N)N)NC(=O)[C@H](CCCCN)NC(=O)[C@H](Cc1ccc(C(F)(F)F)cc1)NC(=O)CN)C(C)C)C(=O)N[C@H](C(N)=O)C(C)C	broth microdilution	PAO1			25 µM

A few entries again:
Structure (SMILES)	test	system	conditions	scale	MIC
N=C(N)NCCC[C@H](NC(=O)[C@H](CCCNC(=N)N)NC(=O)[C@H](CCCNC(=N)N)NC(=O)[C@@H](N)CCCNC(=N)N)C(=O)N[C@@H](Cc1c[nH]c2ccccc12)C(=O)N[C@@H](Cc1c[nH]c2ccccc12)C(=O)N[C@@H](Cc1c[nH]c2ccccc12)C(=O)O	broth microdilution	PAO1	37 °C		150 µg/mL
